Experimental data from different studies.
Lines come from different studies, so protocols differ. Several values in a cell are separate wells, animals, samples, runs or records. Numbers after ± are the reported error.
T1: ssDNA, aptamer; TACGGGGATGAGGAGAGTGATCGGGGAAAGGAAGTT
Sequence of UniProt P11388 (whole entry, looked up): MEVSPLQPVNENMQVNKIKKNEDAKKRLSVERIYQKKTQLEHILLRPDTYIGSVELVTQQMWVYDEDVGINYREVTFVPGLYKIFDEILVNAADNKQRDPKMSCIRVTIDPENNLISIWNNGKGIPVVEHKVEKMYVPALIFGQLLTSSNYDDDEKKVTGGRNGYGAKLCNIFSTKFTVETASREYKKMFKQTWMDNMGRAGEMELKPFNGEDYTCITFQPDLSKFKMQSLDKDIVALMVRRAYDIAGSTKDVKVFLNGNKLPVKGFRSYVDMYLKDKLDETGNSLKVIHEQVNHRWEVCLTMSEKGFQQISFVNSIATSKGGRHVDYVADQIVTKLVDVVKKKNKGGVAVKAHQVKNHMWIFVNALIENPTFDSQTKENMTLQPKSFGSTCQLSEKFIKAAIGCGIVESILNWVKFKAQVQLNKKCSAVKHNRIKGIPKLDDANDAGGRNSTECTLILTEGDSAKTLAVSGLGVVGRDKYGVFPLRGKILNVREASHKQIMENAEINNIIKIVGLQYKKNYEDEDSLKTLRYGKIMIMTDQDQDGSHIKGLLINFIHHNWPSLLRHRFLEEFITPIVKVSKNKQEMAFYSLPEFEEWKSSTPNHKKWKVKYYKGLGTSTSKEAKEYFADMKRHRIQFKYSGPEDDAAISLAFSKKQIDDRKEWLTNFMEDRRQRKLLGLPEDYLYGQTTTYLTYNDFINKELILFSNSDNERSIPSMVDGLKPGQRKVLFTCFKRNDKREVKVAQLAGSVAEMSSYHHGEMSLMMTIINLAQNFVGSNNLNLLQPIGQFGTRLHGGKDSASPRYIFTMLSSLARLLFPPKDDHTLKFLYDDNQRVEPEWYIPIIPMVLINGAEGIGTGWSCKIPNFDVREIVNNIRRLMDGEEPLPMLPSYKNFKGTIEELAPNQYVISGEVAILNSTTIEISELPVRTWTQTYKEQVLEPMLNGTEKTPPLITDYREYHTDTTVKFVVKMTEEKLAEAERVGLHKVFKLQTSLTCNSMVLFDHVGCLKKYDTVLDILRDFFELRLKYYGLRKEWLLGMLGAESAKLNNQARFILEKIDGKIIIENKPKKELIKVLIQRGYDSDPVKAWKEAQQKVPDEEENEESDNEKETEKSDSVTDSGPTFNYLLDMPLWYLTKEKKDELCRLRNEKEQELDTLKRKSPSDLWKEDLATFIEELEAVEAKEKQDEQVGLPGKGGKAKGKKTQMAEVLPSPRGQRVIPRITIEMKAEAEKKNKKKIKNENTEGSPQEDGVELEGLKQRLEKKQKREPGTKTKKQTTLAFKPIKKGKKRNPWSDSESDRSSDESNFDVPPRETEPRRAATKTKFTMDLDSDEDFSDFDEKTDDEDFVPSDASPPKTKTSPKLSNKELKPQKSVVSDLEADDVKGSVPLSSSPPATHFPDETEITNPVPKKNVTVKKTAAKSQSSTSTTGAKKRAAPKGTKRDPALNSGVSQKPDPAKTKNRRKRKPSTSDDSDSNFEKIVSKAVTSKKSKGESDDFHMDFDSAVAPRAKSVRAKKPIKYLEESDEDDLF
Sequence of UniProt P34995 (whole entry, unmodified, looked up): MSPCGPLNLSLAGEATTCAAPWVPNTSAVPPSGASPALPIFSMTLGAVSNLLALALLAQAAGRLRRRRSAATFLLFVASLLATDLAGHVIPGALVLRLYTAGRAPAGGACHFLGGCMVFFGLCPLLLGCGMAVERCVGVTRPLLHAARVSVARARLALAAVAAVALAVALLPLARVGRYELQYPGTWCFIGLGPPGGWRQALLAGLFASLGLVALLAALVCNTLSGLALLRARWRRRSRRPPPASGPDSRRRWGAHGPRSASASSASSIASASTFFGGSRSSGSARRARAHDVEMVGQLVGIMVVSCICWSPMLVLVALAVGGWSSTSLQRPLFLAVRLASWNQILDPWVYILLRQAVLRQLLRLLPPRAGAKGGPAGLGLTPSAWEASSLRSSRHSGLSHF
Sequence of UniProt Q07011 (whole entry, unmodified, looked up): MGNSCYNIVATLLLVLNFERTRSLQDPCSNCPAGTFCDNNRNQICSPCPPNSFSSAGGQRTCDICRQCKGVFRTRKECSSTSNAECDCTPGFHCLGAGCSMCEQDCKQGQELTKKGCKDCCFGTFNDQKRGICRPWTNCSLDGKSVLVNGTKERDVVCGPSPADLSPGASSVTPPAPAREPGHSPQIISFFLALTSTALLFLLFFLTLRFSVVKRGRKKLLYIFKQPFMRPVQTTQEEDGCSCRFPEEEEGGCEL
Sequence of UniProt Q9UBL9 (whole entry, looked up): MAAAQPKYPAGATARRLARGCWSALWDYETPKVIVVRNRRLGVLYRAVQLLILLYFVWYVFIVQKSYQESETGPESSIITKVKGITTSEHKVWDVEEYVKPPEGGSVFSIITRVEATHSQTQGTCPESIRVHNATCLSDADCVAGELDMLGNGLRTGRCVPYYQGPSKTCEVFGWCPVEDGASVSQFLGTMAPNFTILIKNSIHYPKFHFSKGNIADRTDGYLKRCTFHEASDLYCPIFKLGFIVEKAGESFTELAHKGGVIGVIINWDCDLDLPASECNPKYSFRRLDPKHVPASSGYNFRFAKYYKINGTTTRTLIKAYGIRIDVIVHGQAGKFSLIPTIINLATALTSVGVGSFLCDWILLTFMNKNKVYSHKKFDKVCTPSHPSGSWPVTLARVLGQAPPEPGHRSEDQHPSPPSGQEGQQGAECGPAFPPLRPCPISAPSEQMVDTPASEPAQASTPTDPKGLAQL
Sequence of UniProt Q15059 (whole entry, unmodified, looked up): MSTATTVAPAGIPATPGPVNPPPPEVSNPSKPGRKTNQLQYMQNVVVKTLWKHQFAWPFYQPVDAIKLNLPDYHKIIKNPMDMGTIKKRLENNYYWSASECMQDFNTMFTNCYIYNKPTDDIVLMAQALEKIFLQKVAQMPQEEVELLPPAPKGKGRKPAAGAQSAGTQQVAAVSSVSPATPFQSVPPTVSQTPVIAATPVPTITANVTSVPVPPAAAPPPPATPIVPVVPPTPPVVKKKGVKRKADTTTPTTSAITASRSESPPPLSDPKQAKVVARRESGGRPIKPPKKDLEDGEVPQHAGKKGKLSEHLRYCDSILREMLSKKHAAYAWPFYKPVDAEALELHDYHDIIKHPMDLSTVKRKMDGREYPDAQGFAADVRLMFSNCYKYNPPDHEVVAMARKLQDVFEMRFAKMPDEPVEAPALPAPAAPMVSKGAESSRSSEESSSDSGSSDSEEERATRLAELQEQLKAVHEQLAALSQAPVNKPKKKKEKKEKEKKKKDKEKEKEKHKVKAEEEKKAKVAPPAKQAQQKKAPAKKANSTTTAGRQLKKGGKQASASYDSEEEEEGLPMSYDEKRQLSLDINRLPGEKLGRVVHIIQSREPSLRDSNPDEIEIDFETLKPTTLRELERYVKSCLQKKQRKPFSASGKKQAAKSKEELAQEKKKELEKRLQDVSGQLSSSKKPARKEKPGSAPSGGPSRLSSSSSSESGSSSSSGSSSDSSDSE
Sequence of UniProt Q96NY8 (whole entry, looked up): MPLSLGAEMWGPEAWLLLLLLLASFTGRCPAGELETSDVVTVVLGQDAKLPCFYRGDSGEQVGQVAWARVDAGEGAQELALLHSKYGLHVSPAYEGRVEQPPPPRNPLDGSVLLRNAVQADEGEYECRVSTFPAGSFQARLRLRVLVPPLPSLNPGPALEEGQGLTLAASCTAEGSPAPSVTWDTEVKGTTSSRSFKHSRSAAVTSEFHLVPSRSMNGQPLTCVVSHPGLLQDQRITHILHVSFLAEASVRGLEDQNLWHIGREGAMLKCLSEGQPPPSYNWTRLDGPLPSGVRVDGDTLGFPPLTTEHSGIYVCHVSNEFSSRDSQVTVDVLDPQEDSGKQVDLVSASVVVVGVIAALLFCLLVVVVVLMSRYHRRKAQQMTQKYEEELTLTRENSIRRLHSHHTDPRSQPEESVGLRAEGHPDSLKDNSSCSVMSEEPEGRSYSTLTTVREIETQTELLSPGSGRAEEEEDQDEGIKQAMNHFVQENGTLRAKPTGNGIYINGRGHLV
Sequence of UniProt Q13946 (whole entry, looked up): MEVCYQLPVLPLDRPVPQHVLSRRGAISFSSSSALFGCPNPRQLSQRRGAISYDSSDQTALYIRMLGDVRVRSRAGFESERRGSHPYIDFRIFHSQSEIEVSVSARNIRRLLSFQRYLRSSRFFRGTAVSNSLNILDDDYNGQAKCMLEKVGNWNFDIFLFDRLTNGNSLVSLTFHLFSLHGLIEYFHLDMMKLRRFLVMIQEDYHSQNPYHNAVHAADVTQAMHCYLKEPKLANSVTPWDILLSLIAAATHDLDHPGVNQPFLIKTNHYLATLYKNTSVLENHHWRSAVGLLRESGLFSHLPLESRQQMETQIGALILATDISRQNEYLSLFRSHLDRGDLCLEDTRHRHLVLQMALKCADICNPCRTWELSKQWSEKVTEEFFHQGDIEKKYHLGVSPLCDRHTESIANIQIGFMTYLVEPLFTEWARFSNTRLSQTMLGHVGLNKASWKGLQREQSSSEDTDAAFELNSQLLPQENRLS
Sequence of UniProt P19440 (whole entry, looked up): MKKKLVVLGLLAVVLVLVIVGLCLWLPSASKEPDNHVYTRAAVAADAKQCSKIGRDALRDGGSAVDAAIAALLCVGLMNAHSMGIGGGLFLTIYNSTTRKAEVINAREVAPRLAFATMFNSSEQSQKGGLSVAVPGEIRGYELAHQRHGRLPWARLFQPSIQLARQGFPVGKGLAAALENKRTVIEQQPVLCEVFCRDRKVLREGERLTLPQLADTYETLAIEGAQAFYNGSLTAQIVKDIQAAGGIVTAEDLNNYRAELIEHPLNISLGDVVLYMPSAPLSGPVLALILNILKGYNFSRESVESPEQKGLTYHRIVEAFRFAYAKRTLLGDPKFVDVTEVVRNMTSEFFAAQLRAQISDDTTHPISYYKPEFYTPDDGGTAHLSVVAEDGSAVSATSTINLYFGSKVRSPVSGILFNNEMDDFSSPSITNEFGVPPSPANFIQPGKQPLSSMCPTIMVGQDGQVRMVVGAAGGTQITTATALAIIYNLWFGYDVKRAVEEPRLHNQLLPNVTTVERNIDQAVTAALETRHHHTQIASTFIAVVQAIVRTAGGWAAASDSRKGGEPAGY

SMILES | target | assay | test system | setting | scale | measurement | value
N#Cc1ccn2c(-c3ccncc3)c(-c3ccc(F)cc3)nc2c1 | Mitogen-activated protein kinase HOG1 (HOG1, Candida albicans, UniProt Q92207) | MIB/MS competition binding | Candida albicans cell lysate | 1 µM | reference: DMSO, lower = stronger binding | log2 fold change | -0.634
O=C(O)c1ccc(Nc2ncc3c(n2)-c2ccc(Cl)cc2C(c2c(F)cccc2F)=NC3)cc1 | PrKX(h) | kinase activity |  | 1 µM |  | remaining activity | 99%
CCCCC[C@H](O)/C=C/[C@H]1[C@H](O)CC(=O)[C@@H]1C/C=C\CCCC(=O)O | Prostaglandin E2 receptor EP1 subtype (PTGER1, Homo sapiens, UniProt P34995, I352A) | IP1 accumulation, agonist | AD293 | 1 h, EP1 I352A mutant |  | Emax | 54.5 ± 4.56%
Cc1ncccc1OC[C@H]1CN(CCN2CCc3ccccc32)CCO1 | D(4) dopamine receptor (DRD4, Homo sapiens, UniProt P21917) | radioligand binding |  | concentration not given, with: [3H]N-methylspiperone |  | inhibition | 45.4%
CCCC[C@@H]1NC(=O)[C@H](Cc2ccc(O)cc2)NC(=O)[C@@H]2CCCN2C(=O)[C@H](CC(=O)O)NC(=O)[C@H](C)NC(=O)[C@H](Cc2ccccc2)NC(=O)[C@@H]2CSCCC(=O)N3CN(CN(C3)C(=O)CCSC[C@@H](C(=O)N[C@@H](C)C(N)=O)NC1=O)C(=O)CCSC[C@H](NC(C)=O)C(=O)N[C@@H](CC(C)(C)C)C(=O)N1CCC[C@H]1C(=O)N[C@@H](CCC(=O)O)C(=O)N[C@H](CCCCNC(=O)CCc1cn(CCOCCOCCOCCOCCOCCC(=O)NCCCC[C@H]3NC(=O)[C@H](Cc4cccc5ccccc45)NC(=O)[C@@H]4CCCN4C(=O)[C@@H](NC(C)=O)CSCCC(=O)N4CN5CN(C4)C(=O)CCSC[C@H](NC3=O)C(=O)N[C@@H](CCSC)C(=O)N[C@@H](CCCCNC(=N)N)C(=O)N[C@@H](Cc3c[nH]cn3)C(=O)N[C@@H](Cc3c[nH]c4ccccc34)C(=O)N[C@@H](CO)C(=O)N[C@@H]([C@@H](C)O)C(=O)N3CCC[C@H]3C(=O)N3C[C@H](O)C[C@H]3C(=O)N[C@@H](Cc3c[nH]c4ccccc34)C(=O)N[C@H](C(N)=O)CSCCC5=O)nn1)C(=O)N1CCC[C@H]1C(=O)N[C@@H](Cc1ccc(O)cc1)C(=O)N2 | Tumor necrosis factor receptor superfamily member 9/Nectin-4 (Homo sapiens, UniProt Q07011+Q96NY8) | reporter gene, agonist | HT-1376 coculture with reporter cells |  | reference: background | Emax | 39 fold
O=[N+]([O-])c1ccc(S(=O)(=O)Nc2nnc(Cc3ccc(Cl)c(Cl)c3)s2)cc1 | Glutathione hydrolase 1 proenzyme, without transmembrane domain (Homo sapiens, UniProt P19440) | GSH hydrolysis, inhibitor |  | 37 °C, with: GSH 5 to 20 µM |  | Kii | 859 ± 83 µM
CC(=O)N[C@H](C(=O)N1C[C@H](O)C[C@H]1C(=O)NCc1ccc(-c2scnc2C)cc1)C(C)(C)SCCCCCCNC(=O)C[C@@H]1N=C(c2ccc(Cl)cc2)c2c(sc(C)c2C)-n2c(C)nnc21 | VHL/BRD3, BD1; with Elongin B/C (Homo sapiens, UniProt P40337+Q15059) | ternary complex binding, ITC |  | 25 °C, with: VHL-ElonginB-ElonginC titrated into compound:PROTAC:Brd3^BD1 complex |  | −TΔS | -4.75 ± 0.02 kcal/mol
Nc1ncnc2c1ncn2[C@@H]1O[C@H](COP(=O)(O)OP(=O)(O)OP(=O)(O)O)[C@@H](O)[C@H]1O | P2X purinoceptor 2 (P2RX2, Homo sapiens, UniProt Q9UBL9) | ion current, agonist, two-electrode voltage clamp | Xenopus oocytes | concentration-response curve |  | Hill slope | 1.56
O=C1NC(=O)/C(=C/c2ccc(OCCNc3nc4c(cnn4C4CCCC4)c(=O)[nH]3)c(F)c2)S1 | High affinity 3',5'-cyclic-AMP phosphodiesterase 7A (PDE7A, Homo sapiens, UniProt Q13946) |  |  |  | reference: PDE7A over PDE9 | selectivity ratio | 25 fold
O=c1nc(SCc2cc(F)cc(C(F)(F)F)c2)nc(SCc2ccc3sccc3c2)[nH]1 | DNA topoisomerase 2-alpha (TOP2A, Homo sapiens, UniProt P11388) | ATPase activity |  | 1.95 µM, with: ATP 1 mM |  | ATP hydrolysis rate | 2.89 µM/min and 2.26 µM/min
Nc1ncnc2c1ncn2[C@@H]1O[C@H](CO)[C@@H](O)[C@H]1O | T1, ssDNA, aptamer | molecular beacon fluorescence quenching |  |  |  | Kd | 54 µM
Nc1ncnc2c1ncn2[C@@H]1O[C@H](CO[P@](=O)(O)O[P@](=O)(O)O[P@@](=O)(O)S)[C@@H](O)[C@H]1O | GUK1 (Homo sapiens, UniProt Q16774) | binding, isothermal titration calorimetry |  | molar ratio 1.11, fitted curve |  | ΔH | -0.948 kcal/mol

For quick reference, copied from above:
SMILES | target | assay | test system | setting | scale | measurement | value
Nc1ncnc2c1ncn2[C@@H]1O[C@H](COP(=O)(O)OP(=O)(O)OP(=O)(O)O)[C@@H](O)[C@H]1O | P2X purinoceptor 2 (P2RX2, Homo sapiens, UniProt Q9UBL9) | ion current, agonist, two-electrode voltage clamp | Xenopus oocytes | concentration-response curve |  | Hill slope | 1.56
